# Assay results of several laboratories.
# Protocols differ between the studies behind these lines. Numbers after ± are the reported error.
# Organism: Salmonella typhimurium
SMILES,assay,system,setting,how to read,quantity,value
N#C[C@@]1(n2ccc(N)nc2=O)O[C@H](CO)[C@@H](O)[C@H]1O,,TA100,"600 nM, without S9, unit not given",baseline: control,viability,106
CC(=O)N1CCC(C(=O)N2CCN3C(=O)c4cc(-c5ccccc5)ccc4NC(=O)C3C2)CC1 (stereo not drawn),,TA100,"5000 µg/plate, without S9",,revertants per plate,90
CC(C)N(N=O)C(C)C,"mutagenicity, Ames plate incorporation",TA1537,"2500 µg/plate, without S9, methanol",,revertant colonies per plate,13.3 ± 4
O=[N+]([O-])c1ccc(N2CCN(CCC(O)c3ccc(F)cc3)CC2)c(C(F)(F)F)c1 (stereo not drawn),SOS/umu test,TA1535/pSK1002,"0.125 mg/mL, 4 h, without S9, full range",,survival,56.7%
COCCN(CCOC)N=O,"mutagenicity, Ames plate incorporation",TA1537,"50 µg/plate, 3 d, without S9, methanol",,revertant colonies per plate,9.7 ± 3
COc1cccc(-c2n[nH]c(SCc3ccccn3)n2)c1OC,"Ames test, preincubation",TA1537,"0.031 mg/plate, with rat liver S9",,revertant colonies per plate,14
O=[N+]([O-])c1ccc(NC2CCNCC2)c(C(F)(F)F)c1,SOS/umu test,"TA1535/pSK1002, TGA medium","1 mg/mL, 4 h, with: 10% rat liver S9",,survival,69.5%
CNC(=O)c1c(N(C)N=O)ncn1C,plate incorporation,"TA100, water","1500 µg/plate, without S9",,revertant colonies per plate,193 ± 20
O=[N+]([O-])c1ccc(N2CCC(NCCC(O)c3ccc(F)c4ccccc34)CC2)c(C(F)(F)F)c1 (stereo not drawn),SOS/umu test,TA1535/pSK1002,"0.008 mg/mL, 4 h, with S9, full range",,survival,73.5%
Cc1cc(C(=O)NC(C)(C)COc2cccc3c2C(N)=NS(=O)(=O)N3)cc(C)n1,"Ames test, confirmatory",TA100,"3333 µg/plate, with: rat liver S9",baseline: solvent control,revertant ratio,0.8
OC(CCN1CC=C(c2ccc(F)cc2)CC1)c1ccc(F)c2ccccc12 (stereo not drawn),"genotoxicity, SOS/umu test",TA1535/pSK1002,"0.002 mg/mL, 4 h, with S9, full range",,induction factor,1
CN(CC(C)(C)C)N=O,"mutagenicity, Ames plate incorporation",TA100,"2500 µg/plate, without S9, methanol",,revertant colonies per plate,211 ± 21

# A few entries again:
SMILES,assay,system,setting,how to read,quantity,value
CC(C)N(N=O)C(C)C,"mutagenicity, Ames plate incorporation",TA1537,"2500 µg/plate, without S9, methanol",,revertant colonies per plate,13.3 ± 4
O=[N+]([O-])c1ccc(N2CCN(CCC(O)c3ccc(F)cc3)CC2)c(C(F)(F)F)c1 (stereo not drawn),SOS/umu test,TA1535/pSK1002,"0.125 mg/mL, 4 h, without S9, full range",,survival,56.7%
